Experimental data collected from several papers.
Each line is one published result; not all experiments were run side by side. ± marks the error that the study gave.

The chains behind the UniProt entries cited, without tags or fusion partners. Where a name states a change or a piece, a line headed by the entry shows the natural chain unless it says otherwise. Residues count along the entry.
UniProt P04757, whole entry, looked up: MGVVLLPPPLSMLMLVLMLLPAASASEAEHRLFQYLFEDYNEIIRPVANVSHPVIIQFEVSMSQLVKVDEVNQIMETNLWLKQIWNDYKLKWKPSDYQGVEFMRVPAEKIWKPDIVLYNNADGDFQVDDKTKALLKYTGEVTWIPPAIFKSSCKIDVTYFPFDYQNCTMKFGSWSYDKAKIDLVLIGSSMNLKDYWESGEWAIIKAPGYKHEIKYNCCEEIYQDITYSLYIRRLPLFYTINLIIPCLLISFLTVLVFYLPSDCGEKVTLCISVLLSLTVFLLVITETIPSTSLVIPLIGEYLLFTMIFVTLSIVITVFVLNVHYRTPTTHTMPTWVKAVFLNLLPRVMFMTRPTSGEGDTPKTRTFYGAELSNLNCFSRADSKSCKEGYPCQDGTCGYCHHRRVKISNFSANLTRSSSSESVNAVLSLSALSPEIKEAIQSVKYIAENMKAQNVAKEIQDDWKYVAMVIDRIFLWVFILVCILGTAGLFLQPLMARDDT
UniProt P12392, whole entry, looked up: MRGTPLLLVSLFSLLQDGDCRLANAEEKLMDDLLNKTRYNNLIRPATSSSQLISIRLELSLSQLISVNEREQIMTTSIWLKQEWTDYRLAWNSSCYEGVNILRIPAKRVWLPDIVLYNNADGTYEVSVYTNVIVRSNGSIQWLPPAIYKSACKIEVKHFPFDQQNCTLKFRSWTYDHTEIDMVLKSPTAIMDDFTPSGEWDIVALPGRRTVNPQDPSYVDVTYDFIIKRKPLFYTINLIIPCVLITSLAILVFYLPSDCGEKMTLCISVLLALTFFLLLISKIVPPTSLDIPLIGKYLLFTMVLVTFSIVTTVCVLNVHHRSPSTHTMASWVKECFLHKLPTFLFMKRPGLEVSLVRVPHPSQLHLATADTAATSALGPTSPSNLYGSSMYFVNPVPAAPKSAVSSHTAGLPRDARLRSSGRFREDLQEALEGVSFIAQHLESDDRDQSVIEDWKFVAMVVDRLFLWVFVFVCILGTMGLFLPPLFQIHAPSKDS
UniProt P43143, whole entry M241L/F253L/V303I/V320I/I327V/A333T/K339T, looked up: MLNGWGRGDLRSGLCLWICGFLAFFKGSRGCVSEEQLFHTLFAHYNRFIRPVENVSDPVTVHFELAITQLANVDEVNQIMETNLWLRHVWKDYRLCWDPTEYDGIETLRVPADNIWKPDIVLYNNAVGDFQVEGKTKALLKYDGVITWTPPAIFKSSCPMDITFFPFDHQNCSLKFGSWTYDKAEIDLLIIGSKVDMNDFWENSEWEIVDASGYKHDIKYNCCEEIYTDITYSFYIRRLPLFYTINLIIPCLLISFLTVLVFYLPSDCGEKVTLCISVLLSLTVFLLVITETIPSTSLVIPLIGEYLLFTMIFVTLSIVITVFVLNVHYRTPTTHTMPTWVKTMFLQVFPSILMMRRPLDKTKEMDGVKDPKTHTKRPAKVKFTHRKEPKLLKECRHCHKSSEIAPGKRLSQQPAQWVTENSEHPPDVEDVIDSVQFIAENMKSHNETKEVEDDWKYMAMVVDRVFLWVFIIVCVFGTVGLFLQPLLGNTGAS
UniProt P05979, 25-600 limits assumed: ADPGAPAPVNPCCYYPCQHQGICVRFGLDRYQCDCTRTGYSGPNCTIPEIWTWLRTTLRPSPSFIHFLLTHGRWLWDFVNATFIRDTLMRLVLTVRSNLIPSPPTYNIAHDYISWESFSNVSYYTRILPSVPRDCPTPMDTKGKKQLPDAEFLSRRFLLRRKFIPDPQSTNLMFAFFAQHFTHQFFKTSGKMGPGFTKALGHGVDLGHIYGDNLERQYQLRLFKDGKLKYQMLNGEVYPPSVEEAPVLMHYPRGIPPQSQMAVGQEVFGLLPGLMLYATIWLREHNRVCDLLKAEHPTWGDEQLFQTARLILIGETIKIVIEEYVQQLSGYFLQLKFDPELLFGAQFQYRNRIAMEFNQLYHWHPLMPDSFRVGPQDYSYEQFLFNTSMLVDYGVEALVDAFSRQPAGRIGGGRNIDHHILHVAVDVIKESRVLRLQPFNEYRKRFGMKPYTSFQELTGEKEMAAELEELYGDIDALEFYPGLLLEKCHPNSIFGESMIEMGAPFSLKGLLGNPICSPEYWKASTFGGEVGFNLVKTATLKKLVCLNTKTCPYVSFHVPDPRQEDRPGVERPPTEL
UniProt Q57WF1, 1-367: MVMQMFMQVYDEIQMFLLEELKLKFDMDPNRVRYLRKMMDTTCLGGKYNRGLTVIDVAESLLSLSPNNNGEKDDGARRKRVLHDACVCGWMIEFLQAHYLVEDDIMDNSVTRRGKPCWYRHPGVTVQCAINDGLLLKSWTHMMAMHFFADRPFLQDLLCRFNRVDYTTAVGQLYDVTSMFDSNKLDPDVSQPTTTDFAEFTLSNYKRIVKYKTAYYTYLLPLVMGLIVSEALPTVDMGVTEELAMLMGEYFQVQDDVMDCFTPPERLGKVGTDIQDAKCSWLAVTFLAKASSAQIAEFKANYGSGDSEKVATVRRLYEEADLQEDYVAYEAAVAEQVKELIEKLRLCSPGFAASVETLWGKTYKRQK
UniProt P08546, whole entry: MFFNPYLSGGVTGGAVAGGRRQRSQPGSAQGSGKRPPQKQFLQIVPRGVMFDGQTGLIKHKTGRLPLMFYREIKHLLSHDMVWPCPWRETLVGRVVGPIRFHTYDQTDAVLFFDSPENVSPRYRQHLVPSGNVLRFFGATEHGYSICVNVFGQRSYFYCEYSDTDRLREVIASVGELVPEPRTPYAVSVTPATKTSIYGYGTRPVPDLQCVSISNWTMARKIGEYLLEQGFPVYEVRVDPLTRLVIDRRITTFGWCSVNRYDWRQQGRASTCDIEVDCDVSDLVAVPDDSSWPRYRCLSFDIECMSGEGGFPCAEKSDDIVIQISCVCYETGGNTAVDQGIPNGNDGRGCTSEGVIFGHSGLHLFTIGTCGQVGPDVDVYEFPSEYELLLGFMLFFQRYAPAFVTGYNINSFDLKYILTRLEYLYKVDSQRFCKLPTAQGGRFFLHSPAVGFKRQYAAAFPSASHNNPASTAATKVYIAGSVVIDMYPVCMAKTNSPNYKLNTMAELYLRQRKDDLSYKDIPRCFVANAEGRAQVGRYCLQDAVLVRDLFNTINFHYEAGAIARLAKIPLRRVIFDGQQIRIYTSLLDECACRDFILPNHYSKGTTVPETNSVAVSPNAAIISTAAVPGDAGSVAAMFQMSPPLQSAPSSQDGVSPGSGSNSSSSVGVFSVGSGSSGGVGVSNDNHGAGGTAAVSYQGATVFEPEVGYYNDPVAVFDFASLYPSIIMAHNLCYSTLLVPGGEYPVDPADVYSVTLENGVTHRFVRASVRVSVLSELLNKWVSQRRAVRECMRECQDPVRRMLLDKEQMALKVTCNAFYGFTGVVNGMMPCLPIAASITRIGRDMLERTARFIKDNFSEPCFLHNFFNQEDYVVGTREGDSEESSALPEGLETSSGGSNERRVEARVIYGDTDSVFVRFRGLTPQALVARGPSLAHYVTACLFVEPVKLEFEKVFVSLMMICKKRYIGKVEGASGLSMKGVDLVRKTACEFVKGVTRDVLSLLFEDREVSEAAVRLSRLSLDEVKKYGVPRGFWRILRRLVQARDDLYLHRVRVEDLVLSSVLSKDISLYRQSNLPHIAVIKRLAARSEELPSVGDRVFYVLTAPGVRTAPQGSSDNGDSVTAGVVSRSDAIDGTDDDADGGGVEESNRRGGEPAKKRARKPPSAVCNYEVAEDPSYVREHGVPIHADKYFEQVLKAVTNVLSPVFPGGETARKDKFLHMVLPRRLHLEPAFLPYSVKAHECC
UniProt P0DOF5, whole entry V27A: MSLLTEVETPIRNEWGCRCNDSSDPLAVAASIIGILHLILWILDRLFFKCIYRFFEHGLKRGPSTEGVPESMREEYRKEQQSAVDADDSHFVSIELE
UniProt P14867, 28-456 L291T limits assumed: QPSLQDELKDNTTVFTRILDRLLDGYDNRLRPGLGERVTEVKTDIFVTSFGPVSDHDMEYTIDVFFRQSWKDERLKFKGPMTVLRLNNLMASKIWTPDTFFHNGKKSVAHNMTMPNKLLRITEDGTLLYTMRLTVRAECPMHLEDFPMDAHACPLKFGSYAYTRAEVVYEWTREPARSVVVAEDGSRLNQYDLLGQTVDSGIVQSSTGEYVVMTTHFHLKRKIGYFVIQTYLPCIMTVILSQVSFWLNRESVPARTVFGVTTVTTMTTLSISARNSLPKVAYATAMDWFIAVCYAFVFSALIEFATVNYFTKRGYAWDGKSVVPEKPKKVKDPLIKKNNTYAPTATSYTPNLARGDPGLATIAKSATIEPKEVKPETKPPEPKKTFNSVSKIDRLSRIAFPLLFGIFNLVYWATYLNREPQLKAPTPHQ
UniProt P28472, 26-473 limits assumed, stated change not applied: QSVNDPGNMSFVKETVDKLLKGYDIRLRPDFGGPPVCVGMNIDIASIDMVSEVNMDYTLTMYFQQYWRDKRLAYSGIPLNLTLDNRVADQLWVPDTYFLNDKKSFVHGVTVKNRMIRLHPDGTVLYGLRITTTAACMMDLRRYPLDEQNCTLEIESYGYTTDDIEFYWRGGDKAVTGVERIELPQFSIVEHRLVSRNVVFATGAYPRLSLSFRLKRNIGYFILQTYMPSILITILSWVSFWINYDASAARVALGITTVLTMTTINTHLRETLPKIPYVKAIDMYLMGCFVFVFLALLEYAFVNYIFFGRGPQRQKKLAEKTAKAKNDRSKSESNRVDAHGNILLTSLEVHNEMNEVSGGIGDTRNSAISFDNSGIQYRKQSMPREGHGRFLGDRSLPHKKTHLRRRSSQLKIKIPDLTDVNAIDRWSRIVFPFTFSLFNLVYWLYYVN
UniProt P37136, 32-574 limits assumed: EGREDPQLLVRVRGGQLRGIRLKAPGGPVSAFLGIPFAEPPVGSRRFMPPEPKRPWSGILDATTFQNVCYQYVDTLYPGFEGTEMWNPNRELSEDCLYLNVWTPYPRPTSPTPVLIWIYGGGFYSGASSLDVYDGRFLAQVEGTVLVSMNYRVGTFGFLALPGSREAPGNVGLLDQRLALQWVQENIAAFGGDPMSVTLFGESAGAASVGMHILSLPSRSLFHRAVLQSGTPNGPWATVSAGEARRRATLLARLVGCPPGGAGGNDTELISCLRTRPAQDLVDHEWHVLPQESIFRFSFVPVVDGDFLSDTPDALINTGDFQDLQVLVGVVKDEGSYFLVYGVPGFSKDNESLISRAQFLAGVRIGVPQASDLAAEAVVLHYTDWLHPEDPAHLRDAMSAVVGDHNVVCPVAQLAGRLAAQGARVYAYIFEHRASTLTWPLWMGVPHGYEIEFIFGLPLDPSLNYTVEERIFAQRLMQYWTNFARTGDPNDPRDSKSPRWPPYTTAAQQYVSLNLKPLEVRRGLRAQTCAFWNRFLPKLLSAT
UniProt P18507, 40-475 partner limits assumed: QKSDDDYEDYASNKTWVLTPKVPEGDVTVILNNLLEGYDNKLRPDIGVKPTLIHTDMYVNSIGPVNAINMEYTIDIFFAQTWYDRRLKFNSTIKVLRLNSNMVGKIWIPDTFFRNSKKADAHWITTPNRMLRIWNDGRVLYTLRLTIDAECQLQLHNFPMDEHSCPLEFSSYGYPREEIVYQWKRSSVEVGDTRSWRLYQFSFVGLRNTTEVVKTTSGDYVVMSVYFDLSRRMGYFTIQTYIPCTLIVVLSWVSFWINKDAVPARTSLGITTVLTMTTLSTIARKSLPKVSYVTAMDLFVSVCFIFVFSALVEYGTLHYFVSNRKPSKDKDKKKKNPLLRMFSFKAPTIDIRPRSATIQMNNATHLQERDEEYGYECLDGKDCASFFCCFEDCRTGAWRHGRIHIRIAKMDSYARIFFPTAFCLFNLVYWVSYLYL

Compound	tested on	test	test system	conditions	scale	quantity	value
C=C(CC)C(=O)c1ccc(OCC(=O)NCCOCCOCCOCCC(=O)NCCN(CCNC(=O)CCOCCOCCOCCNC(=O)COc2ccc(C(=O)C(=C)CC)c(Cl)c2Cl)CCNC(=O)[C@H](CNC(=O)CCN2C(=O)CC(SC[C@H](NC(=O)CNC(=O)[C@H](CC(C)C)NC(=O)[C@@H](NC(=O)[C@H](CCCCN)NC(=O)[C@H](CCCCN)NC(=O)[C@H](C)NC(=O)[C@H](CC(C)C)NC(=O)[C@H](C)NC(=O)[C@H](C)NC(=O)[C@H](CC(C)C)NC(=O)[C@H](C)NC(=O)[C@H](CCCCN)NC(=O)[C@H](CC(C)C)NC(=O)[C@H](CC(N)=O)NC(=O)[C@@H](N)[C@@H](C)CC)[C@@H](C)CC)C(=O)O)C2=O)NC(=O)CCCCCN2C(=CC=CC=CC3=[N+](C)c4ccc(S(=O)(=O)O)cc4C3(C)C)C(C)(C)c3cc(S(=O)(=O)[O-])ccc32)c(Cl)c1Cl (stereo partly drawn)	Calm1, Ca2+-bound (Mus musculus, UniProt P0DP26)	binding, fluorescence anisotropy	–	pH 7.4, with: 0.3 mM CaCl2	–	Kd	0.031 ± 0.008 µM
CC[C@H](C)[C@@H]1NC(=O)[C@H](CCC(=O)O)NC(=O)[C@@H]2CCCN2C(=O)[C@H](Cc2c[nH]cn2)NC(=O)[C@H](CCCNC(=N)N)NC(=O)[C@H](C(C)C)NC(=O)[C@H](CC(N)=O)NC(=O)[C@@H]2CSSC[C@H](NC(=O)CN)C(=O)N[C@@H](CSSC[C@@H](C(N)=O)NC1=O)C(=O)N[C@@H](CO)C(=O)N[C@@H](Cc1c[nH]cn1)C(=O)N1CCC[C@H]1C(=O)N[C@@H](C(C)C)C(=O)N2	Nicotinic acetylcholine receptor alpha6/alpha3/beta4 (Rattus norvegicus, UniProt P04757+P12392+P43143)	ion current, antagonist, two-electrode voltage clamp	Xenopus oocytes	rat, with: ACh 300 µM	–	IC50	0.00049 µM
COc1ccc2c(c1)c(CC(=O)NCCCCNC(=O)c1ccc(C3=c4cc5c6c(c4Oc4c3cc3c7c4CCCN7CCC3)CCC[N+]=6CCC5)c(C(=O)NC3CC(C)(C)N([O])C(C)(C)C3)c1)c(C)n2C(=O)c1ccc(Cl)cc1	Prostaglandin G/H synthase 1 (PTGS1, Ovis aries, UniProt P05979)	enzyme activity, inhibitor, TLC	–	with: [14C]arachidonic acid	–	IC50	> 4 µM
O=C(Nc1cccc(C2=NCCN2)c1)c1ccc(-c2ccc(C(=O)Nc3cccc(C4=NCCN4)c3)cc2)cc1	farnesyl diphosphate synthase (Trypanosoma brucei, UniProt Q57WF1)	enzyme activity	–	–	–	IC50	27 ± 0.25 µM
Cc1cn([C@@H]2CC[C@H](OC(C(=O)O)P(=O)(O)O)C2)c(=O)[nH]c1=O (relative stereo)	DNA polymerase catalytic subunit (Human cytomegalovirus, UniProt P08546)	enzyme activity, inhibitor	–	with: activated calf thymus DNA	–	IC50	38 ± 11 µM
C1CCC2(CC1)CCNCC2	Matrix protein 2 (Influenza A virus, UniProt P0DOF5, V27A)	viral replication	Udorn	–	–	IC50	> 200 µM
CCOC(=O)c1c(-c2ccc(Cl)cc2Cl)n(-c2nc(-c3ccc(Cl)cc3)c3c(NC(=O)c4ccccc4)nnc-3[nH]2)[nH]c1=O	MOLT-4	SRB	–	–	–	CC50	> 100 µM
CCOC(=O)c1cccn1C(C)c1ccncc1 (stereo not drawn)	GABA-A receptor alpha-1/beta-3, with gamma-2 subunit (GABRA1/GABRB3, Homo sapiens, UniProt P14867+P28472, L291T)	ion current, agonist, two-electrode voltage clamp	Xenopus laevis oocytes	–	reference: 100 µM GABA	EC50	335 ± 36 µM
COc1cc(C2C(C#N)=C(N)Oc3c2c(C)nn3-c2ccc(Cl)cc2)ccc1O (stereo not drawn)	Vero E6	–	–	0.4 µM	–	viability	90.7%
COP(=O)(OC)Oc1ccc([N+](=O)[O-])cc1Cl	Acetylcholinesterase (Ache, Rattus norvegicus, UniProt P37136)	enzyme activity, inhibitor, discontinuous Ellman	rat, postnatal day 1, rat lung homogenate	15 min, 37 °C	–	IC50	0.109 µM
N#Cc1c(-c2ccc(Cl)cc2Cl)n(-c2nc(-c3ccc(Cl)cc3)c3c(NC(=O)c4ccccc4)nnc-3[nH]2)[nH]c1=O	U-251	SRB	–	–	–	CC50	> 100 µM
Cc1nn(-c2ccc(Cl)cc2)c2c1C(c1cccc(Cl)c1Cl)C(C#N)=C(N)O2 (stereo not drawn)	Vero E6	MTT	–	25 µM	–	viability	55.6%
